Measured values pooled from the literature.
Parts stem from different laboratories: compare values within a part only.

Sample 1
Target: Interferon regulatory factor 3, full length, phosphomimetic (IRF3, Homo sapiens, UniProt Q14653, residues 1-427, S386D/S396D/S398D/S402D/T404D/S405D)
UniProt Q14653, sequence (whole entry, unmodified, looked up): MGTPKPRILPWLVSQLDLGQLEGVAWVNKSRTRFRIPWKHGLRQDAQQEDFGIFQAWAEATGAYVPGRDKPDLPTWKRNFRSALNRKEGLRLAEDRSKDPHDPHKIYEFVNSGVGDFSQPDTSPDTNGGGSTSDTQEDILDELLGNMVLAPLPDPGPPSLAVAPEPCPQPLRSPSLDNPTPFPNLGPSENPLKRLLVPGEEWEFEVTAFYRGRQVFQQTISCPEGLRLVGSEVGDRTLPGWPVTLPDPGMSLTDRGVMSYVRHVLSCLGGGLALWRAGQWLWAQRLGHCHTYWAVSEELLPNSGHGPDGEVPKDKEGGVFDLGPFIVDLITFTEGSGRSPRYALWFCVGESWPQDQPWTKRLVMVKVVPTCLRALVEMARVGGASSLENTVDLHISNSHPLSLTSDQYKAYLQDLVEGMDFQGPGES
Method: protein-binding microarray
Molecule type: double-stranded DNA, one strand shown
Matrix: in vitro
Concentration: 2540 nM top
Notes: 60-bp whole probe
Added: salmon DNA 0.4 mg/ml
Baseline: random background probes
Direction: higher = stronger binding
Shared flanks, not repeated: GCCTAGCAC … GTCTTGATTCGCTTGACGCTGCTG
| Oligonucleotide | fitted relative affinity [z-score] |
| --- | --- |
| GACGGTTTCGGACTGGCGACGTGCTAG | 4.72 |
| GACGGTTTCGTACTGCTGACGTGCTAG | 3.93 |
| TTAGGTCTCGGACTGGGTAAGTGCTAG | -0.266 |
| TTAGATTTCAGACTAGATTAGTGCTAG | 1.03 |
| TTGTGTCTGGGCATTTTTTTTGTGCTA | -0.904 |
| TCATGTCTTCCCCTCTCACTGTGCTAG | 0.442 |
| TTAGGTTTCGGGTTTCGGTCAGTGCTA | 5.99 |
| TTAGATTTCTGGTATCGATTAGTGCTA | 0.721 |
| CTTTTTTTTTTTTTTTTTTGGTGCTAG | 2.94 |
| TCATCTTTTCTGTTGTCACTGTGCTAG | 1.88 |
| AATCATTTTAGTTTTCATTAGTGCTAG | 3.07 |
| GACGGTTTCGTTTTCGGGACGTGCTAG | 8.58 |
| GACGGTTTCAGTATCGGGACGTGCTAG | 5.25 |
| GACGAACTGACTCTCGAGACGTGCTAG | -0.0895 |

Sample 2
Target: RNA binding protein fox-1 homolog 2, RRM domain, GST-SBP tag (RBFOX2, Homo sapiens, UniProt O43251-10, residues 100-194)
Method: RNA Bind-n-Seq
Molecule type: RNA
Matrix: in vitro
Concentration: 365 nM
Notes: natural RNA segment, single round, ends assumed
Baseline: no-protein control
Direction: higher = stronger binding
Shared flanks, not repeated: GGGAGUUCUACAGUCCGACGAUC … UGGAAUUCUCGGGUGCCAA
Residues (chain): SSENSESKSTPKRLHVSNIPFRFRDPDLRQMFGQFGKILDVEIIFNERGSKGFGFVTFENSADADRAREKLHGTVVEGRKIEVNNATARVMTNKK
| Oligonucleotide | RBNS enrichment (R) |
| --- | --- |
| GCCGUGUUACUAACUCUAGUAUGUUUCUGUGUCAAUCGCUGUGAAAUAAAGUCUGAAAACUUUAAAAGCAUUGCUUUUGUCCAUCCUCACCAGCGCGCUGGCCCGUUGGC | 0.28 |
| GUGUAAUUAUUUCUUCUCUUACUAGUUUCAAAUAAAUUCAUCUCUAAUUCUAUAGAGAAUUCUUGCCUCCCAUUCAGGACUGGCCUUCUAUACAGUGAGAUGGUCCAGUA | 0.789 |
| UUUCCUCCCCACCCCACUCCCCAAAUACAGAGGUCUGCUUUGAAGCGGAGACCAUUUCCAGGCCUUAUUGAGACCAGACCCCAAGUCCCCCACCCCCAUCCUGCUCCAGC | 0.47 |
| GACAAUGAGUAACUGGUCUACUGAACCCUUUAAUAGCAUUUUAAUGUUACUGAGUCAGGAGAUUCAUAAGUAACUAAGAAACUGGCAGGUCAUACUGGGCAACAGUGUUC | 0.385 |
| UCCCUGUCAUCUGGGGAUGGGGAGGAAUUCAGGCCUGUUCACUUCCCCAGUUCUGUAGCAGCCGAUCAGCGUCACCUUUGAAGUAUACAUGAGAGAAAUAUAUUUACAAA | 0.948 |
| UGUCUGAGAGAGAGUGCCACACCUUGUAGGGACUGGCAGGAAACAGGUCAGGGCCUUCCCCAGAGCCAAGACAAUGCAGAGGAGGGCUCCUUAACUCAGACCAGGGCCAU | 0.214 |
| UUGGAAACCAGGCCUGGGCCUCAAAAUGGAGAUGGAUCCCAGGUCUUGUGGGACCCUGGGAUGUUUGGGGACUUUACUAUCUAGCACCCCAGUAGGCCUGUCCUGGCCAG | 0.901 |
| UCAAAAUGGAGAGUUAUUUAAAGUGGAUGUGUAGCCUUCUGGAAUCUGCACGUGACUGGCAUUUUAAAACAACUCAUUAAAUAUUGGAUUCAUUUUAUCGAGAUGCCAAG | 4.22 |
| CUUCAACAUUUCUUCACUUUUGCAAGGUUCCACAGACUAAGACAUUGGGUCUAUUCCAGCUCAUUCAUUUUAUAUUGAAAACUAAUUUAAAAAAAAAUGGUGGCUUCAGC | 0.472 |
| CAUUUAUCUUGCAUUUCUUUAUUCUUUCUAAUUACCUAAAAUUCAAUAAAAGUUUAUUCAUAUAAAACAUGCUGUCAUUAAUUGUCAUAGUAGUAAUAGAUACAUGACUU | 0.629 |
| UUCUCCAGAGCGCCAGCCAGCCACGGGCCUGAUUCCAGAGGAGCCGAACUGACAGGACACAGCAGGCUGGAGUUGGUGUUAGAUUGCUUCACAUUCUCUUGUCACCACCA | 0.504 |
| ACUUCCUGCACUUAAAAUUUGAAACAGCAAAGGUUUGAGAUGAGAUGCUUGUGGCACACAGUUGGGUGAUGUGGGGAAAGGACACCGGGUCAGGAGUUGCAAGUUUAACU | 0.78 |

Sample 3
Target: Histone acetyltransferase KAT6A, winged helix 1, GST fusion (KAT6A, Homo sapiens, UniProt Q92794, residues 1-85)
Method: protein binding microarray
Molecule type: double-stranded DNA, one strand shown
Matrix: in vitro
Concentration: not given
Notes: 8-mer, flanks averaged, mean of 2 arrays, mostly near background
Baseline: not given
Direction: higher = stronger binding
Residues (chain): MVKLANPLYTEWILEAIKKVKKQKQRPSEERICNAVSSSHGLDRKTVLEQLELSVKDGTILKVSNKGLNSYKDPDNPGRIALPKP
| Oligonucleotide | E-score |
| --- | --- |
| CTAGCGAC | 0.0493 |
| CTCGGAAA | -0.0804 |
| ACTGTGCG | 0.173 |
| CCTAACCC | 0.14 |
| CGCACTTC | 0.119 |
| ACTGGCCC | -0.181 |
| TACAGGGA | -0.221 |
| AAGGCCTC | -0.192 |
| AGATGGGA | -0.217 |
| CTCGATTC | 0.0165 |
| GGGCGACA | 0.3 |
| TCACCTGA | -0.196 |
| AAGGAGCG | 0.186 |
| CCCGCACA | 0.358 |
| AAATACTC | -0.1 |

Sample 4
Target: Fragile X messenger ribonucleoprotein 1, C-terminal low-complexity region (Fmr1, Mus musculus, UniProt P35922)
Method: RNA Bind-n-Seq
Molecule type: RNA
Matrix: in vitro
Concentration: 200 nM
Notes: whole 134-nt RNA, ends assumed
Added: 150 mM LiCl
Baseline: input library
Direction: higher = stronger binding
Each molecule: 7-deaza-guanosine replaces G
Shared flanks, not repeated: GGGAGUUCUACAGUCCGACGAUC … UGGAAUUCUCGGGUGUCAAGG
| Oligonucleotide | log2 enrichment |
| --- | --- |
| UCAAGUCCUGUGCUACACAUCGUAUGUACCGAAUCGGGUUUGGGAAAGGGUGGGAAAGUAUUAUGUUACGCCGUUCGGAUCUGCACUUCC | -1.92 |
| UUGGCUACAAUGCAGAGACACAGAAACUACUAUGCAAGAAUGGGGAAACGCUGCUAGGAGCCGUGAACUUCUUUGUCUCUAGCAUCAACA | -1.05 |
| AAGUCCUGUGCUACACAUCGUAUGUACCGAAUCGGGGUUUGGGGUUUGGGGUGGGGAAAGUAUUAUGUUACGCCGUUCGGAUCUGCACUU | -0.901 |
| UGGAGCUACAGAUGGUGUCCUUCCUGCCAGGUGUGUGUGGAGGCCAGUAUGAAGCUGAAAAAGCAGGUGACAGUGUGUGGGGCUGCCAUC | 0.627 |
| UCCUGUGCUACACAUCGUAUGUACCGAAUCGGUUUUUUUGGAAAAAAAGGAAAAAAAGGAAAGUAUUAUGUUACGCCGUUCGGAUCUGCA | -2.42 |
| UGGUUCUGGCAUUUAUGACCCUUGUGAAAAAGAAGCCACUGAUGCUAUUGGGCAUCUAGACAGACAGCAACGGGAAGAUAUCACACAGAG | -1.12 |

Repeated from above (sample 2):
| Oligonucleotide | RBNS enrichment (R) |
| --- | --- |
| GACAAUGAGUAACUGGUCUACUGAACCCUUUAAUAGCAUUUUAAUGUUACUGAGUCAGGAGAUUCAUAAGUAACUAAGAAACUGGCAGGUCAUACUGGGCAACAGUGUUC | 0.385 |
| UCCCUGUCAUCUGGGGAUGGGGAGGAAUUCAGGCCUGUUCACUUCCCCAGUUCUGUAGCAGCCGAUCAGCGUCACCUUUGAAGUAUACAUGAGAGAAAUAUAUUUACAAA | 0.948 |
| UGUCUGAGAGAGAGUGCCACACCUUGUAGGGACUGGCAGGAAACAGGUCAGGGCCUUCCCCAGAGCCAAGACAAUGCAGAGGAGGGCUCCUUAACUCAGACCAGGGCCAU | 0.214 |
| UUGGAAACCAGGCCUGGGCCUCAAAAUGGAGAUGGAUCCCAGGUCUUGUGGGACCCUGGGAUGUUUGGGGACUUUACUAUCUAGCACCCCAGUAGGCCUGUCCUGGCCAG | 0.901 |
| UCAAAAUGGAGAGUUAUUUAAAGUGGAUGUGUAGCCUUCUGGAAUCUGCACGUGACUGGCAUUUUAAAACAACUCAUUAAAUAUUGGAUUCAUUUUAUCGAGAUGCCAAG | 4.22 |
| CUUCAACAUUUCUUCACUUUUGCAAGGUUCCACAGACUAAGACAUUGGGUCUAUUCCAGCUCAUUCAUUUUAUAUUGAAAACUAAUUUAAAAAAAAAUGGUGGCUUCAGC | 0.472 |
| CAUUUAUCUUGCAUUUCUUUAUUCUUUCUAAUUACCUAAAAUUCAAUAAAAGUUUAUUCAUAUAAAACAUGCUGUCAUUAAUUGUCAUAGUAGUAAUAGAUACAUGACUU | 0.629 |
| UUCUCCAGAGCGCCAGCCAGCCACGGGCCUGAUUCCAGAGGAGCCGAACUGACAGGACACAGCAGGCUGGAGUUGGUGUUAGAUUGCUUCACAUUCUCUUGUCACCACCA | 0.504 |
